Experimental data from different studies.
Protocols differ between the studies behind these lines. ± gives the spread as reported.
ADRA2A: Alpha-2A adrenergic receptor (ADRA2A, Homo sapiens, UniProt P08913)
Sequence of UniProt P08913 (whole entry, looked up): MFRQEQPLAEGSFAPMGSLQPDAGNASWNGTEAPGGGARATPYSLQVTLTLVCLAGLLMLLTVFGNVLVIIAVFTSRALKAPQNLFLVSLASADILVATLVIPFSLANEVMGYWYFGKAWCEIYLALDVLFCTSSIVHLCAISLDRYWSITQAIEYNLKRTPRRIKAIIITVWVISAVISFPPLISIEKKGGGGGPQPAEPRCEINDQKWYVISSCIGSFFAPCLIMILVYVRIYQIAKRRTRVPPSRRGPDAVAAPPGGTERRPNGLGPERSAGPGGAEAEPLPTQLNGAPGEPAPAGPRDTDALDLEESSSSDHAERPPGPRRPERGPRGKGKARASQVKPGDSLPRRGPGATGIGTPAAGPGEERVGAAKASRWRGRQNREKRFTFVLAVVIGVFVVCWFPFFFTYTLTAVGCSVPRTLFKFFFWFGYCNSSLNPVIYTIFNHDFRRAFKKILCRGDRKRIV
APP: Amyloid-beta precursor protein (APP, Homo sapiens, UniProt P05067)
Sequence of UniProt P05067 (whole entry, looked up): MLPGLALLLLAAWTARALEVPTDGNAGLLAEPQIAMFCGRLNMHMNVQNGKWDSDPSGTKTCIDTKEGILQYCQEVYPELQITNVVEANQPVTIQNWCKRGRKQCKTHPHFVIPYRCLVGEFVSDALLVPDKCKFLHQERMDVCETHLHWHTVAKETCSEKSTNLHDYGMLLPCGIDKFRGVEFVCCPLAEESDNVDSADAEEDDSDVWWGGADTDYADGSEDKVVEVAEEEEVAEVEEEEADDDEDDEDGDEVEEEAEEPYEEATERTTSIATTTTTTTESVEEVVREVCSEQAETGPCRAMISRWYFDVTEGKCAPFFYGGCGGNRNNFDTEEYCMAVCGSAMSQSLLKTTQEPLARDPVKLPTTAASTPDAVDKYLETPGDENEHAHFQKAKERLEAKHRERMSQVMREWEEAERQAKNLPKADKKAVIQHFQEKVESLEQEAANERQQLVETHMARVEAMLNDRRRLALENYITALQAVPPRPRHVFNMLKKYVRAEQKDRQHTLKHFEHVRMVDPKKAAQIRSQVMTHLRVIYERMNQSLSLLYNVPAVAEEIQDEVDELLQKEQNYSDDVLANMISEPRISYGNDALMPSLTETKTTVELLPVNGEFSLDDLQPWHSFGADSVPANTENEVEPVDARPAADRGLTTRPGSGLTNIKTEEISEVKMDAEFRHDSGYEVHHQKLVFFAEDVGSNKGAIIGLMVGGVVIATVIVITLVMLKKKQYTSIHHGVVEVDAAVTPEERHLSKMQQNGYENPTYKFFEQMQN
DIO2: Type II iodothyronine deiodinase (DIO2, Homo sapiens, UniProt Q92813)
Sequence of UniProt Q92813 (whole entry, looked up): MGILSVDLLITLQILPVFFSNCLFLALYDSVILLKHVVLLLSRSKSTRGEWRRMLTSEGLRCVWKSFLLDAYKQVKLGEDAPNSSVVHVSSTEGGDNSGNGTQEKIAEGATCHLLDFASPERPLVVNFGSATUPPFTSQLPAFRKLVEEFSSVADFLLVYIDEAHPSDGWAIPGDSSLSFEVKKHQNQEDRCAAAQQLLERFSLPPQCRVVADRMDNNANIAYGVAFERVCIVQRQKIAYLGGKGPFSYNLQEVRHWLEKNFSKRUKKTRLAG
HDAC2: Histone deacetylase 2 (HDAC2, Homo sapiens, UniProt Q92769)
Sequence of UniProt Q92769 (whole entry, looked up): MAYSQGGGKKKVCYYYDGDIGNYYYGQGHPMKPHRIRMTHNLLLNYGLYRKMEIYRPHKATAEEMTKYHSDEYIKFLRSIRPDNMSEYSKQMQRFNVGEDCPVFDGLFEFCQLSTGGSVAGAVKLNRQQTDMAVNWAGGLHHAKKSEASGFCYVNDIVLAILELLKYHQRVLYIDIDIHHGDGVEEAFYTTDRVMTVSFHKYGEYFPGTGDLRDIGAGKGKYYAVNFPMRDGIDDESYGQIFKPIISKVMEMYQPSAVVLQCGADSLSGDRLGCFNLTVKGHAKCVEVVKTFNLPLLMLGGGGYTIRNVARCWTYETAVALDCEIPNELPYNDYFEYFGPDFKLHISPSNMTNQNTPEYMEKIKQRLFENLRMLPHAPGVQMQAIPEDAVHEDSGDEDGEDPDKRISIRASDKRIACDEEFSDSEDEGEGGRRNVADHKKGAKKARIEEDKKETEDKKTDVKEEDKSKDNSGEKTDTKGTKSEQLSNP
Tubulin alpha-1B chain/TUBB2B: Tubulin alpha-1B chain/TUBB2B (Bos taurus, UniProt P81947+Q6B856)
Sequence of UniProt Q6B856 (whole entry, looked up): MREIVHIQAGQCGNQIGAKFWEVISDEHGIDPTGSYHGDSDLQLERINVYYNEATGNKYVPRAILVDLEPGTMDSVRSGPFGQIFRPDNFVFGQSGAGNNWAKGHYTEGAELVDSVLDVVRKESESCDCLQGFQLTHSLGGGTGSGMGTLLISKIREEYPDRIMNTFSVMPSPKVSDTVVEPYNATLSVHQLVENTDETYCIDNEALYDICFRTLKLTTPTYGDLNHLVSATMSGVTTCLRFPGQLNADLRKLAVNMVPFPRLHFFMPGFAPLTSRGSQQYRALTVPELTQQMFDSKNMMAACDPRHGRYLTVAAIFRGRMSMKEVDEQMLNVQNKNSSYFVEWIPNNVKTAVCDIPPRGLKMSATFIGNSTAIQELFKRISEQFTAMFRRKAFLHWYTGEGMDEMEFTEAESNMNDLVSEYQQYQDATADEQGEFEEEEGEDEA
Sequence of UniProt P81947 (whole entry, looked up): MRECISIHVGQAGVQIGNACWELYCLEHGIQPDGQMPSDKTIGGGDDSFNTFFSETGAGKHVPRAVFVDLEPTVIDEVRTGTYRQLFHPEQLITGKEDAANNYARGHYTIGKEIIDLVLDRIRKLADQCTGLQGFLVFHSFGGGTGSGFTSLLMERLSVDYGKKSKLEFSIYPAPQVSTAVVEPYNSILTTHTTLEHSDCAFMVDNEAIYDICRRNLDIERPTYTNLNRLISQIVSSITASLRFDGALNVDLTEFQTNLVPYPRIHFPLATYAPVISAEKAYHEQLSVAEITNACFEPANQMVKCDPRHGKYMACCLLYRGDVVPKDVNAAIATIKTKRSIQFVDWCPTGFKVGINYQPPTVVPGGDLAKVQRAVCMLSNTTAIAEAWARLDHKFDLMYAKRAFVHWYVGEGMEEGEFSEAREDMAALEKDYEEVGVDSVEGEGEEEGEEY
Sequence of UniProt P45568 (whole entry, looked up): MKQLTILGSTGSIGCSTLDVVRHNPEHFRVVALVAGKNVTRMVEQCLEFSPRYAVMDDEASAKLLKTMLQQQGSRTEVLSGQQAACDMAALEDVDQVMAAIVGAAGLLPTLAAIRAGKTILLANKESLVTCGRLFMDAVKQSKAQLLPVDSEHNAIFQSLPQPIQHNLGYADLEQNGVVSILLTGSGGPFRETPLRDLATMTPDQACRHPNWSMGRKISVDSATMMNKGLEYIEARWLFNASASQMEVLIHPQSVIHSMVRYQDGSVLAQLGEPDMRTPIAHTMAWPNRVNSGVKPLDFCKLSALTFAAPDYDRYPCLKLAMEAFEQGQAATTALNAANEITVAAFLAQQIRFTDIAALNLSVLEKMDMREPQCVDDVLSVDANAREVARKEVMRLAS
Sequence of UniProt P77488 (whole entry, looked up): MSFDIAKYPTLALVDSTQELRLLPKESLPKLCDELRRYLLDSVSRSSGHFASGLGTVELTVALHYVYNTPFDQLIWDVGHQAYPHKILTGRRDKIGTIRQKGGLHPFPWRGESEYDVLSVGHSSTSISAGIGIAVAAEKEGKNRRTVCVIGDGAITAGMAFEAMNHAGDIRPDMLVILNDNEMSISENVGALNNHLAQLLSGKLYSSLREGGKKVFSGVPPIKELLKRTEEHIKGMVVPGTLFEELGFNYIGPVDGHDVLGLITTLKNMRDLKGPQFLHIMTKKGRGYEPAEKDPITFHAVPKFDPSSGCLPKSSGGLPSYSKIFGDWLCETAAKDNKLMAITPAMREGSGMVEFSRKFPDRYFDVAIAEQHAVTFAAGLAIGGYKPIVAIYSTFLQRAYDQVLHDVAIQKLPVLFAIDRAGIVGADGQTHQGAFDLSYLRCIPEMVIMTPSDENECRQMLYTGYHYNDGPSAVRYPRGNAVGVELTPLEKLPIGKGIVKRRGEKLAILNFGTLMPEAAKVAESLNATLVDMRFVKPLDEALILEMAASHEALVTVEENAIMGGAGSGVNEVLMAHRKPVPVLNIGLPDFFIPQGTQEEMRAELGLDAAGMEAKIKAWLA
Sequence of UniProt P41595 (whole entry, looked up): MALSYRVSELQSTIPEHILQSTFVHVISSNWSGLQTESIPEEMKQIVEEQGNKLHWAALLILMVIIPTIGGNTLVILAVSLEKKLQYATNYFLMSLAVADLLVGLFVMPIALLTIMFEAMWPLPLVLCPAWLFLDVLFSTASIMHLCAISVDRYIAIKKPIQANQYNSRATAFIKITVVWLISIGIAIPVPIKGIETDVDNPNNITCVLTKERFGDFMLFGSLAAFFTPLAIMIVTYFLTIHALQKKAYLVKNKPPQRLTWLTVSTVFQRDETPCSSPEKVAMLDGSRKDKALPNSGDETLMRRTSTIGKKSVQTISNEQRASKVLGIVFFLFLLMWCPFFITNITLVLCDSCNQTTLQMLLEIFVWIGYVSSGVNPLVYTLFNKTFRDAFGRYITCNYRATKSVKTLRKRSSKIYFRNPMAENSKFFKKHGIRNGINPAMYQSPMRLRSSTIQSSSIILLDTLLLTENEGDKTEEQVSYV
Sequence of UniProt O76082 (whole entry, looked up): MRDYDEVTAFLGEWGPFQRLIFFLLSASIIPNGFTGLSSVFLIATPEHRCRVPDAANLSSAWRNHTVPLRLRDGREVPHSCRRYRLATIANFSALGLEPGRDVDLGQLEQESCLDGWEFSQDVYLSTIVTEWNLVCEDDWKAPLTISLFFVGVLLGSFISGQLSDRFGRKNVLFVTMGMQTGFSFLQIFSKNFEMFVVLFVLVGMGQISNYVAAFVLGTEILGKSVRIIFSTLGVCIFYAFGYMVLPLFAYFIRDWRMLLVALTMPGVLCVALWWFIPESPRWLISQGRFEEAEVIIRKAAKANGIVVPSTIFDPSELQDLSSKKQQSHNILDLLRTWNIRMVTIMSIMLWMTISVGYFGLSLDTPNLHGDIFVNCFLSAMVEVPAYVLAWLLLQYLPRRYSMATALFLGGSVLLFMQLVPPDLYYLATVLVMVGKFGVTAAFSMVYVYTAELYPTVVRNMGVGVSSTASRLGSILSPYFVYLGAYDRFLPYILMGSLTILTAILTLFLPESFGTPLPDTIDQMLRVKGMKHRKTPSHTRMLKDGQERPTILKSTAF

For CC1N=C(c2ccccc2F)c2cc(Nc3ccc(Cl)cc3)ccc2NC1=O (stereo not drawn), the inhibition was 78% (ADRA2A; ligand displacement, radioligand; 10 µM).
CS(=O)(=O)c1ccc2nc(NC(=O)CCN3CCN(C(=O)OCc4ccccc4)CC3)sc2c1 gave an inhibition of 52.4% (APP; amyloid aggregation, inhibitor, fluorescence; 50 µM).
CCCNC(=O)[C@H]1O[C@@H]1C(=O)N[C@H](C(=O)N1CCC[C@H]1C(=O)OC)[C@@H](C)CC: inhibition “inhibited” (Cathepsin B (CTSB, Homo sapiens, UniProt P07858); enzyme activity, inhibitor; neuroblastoma cells; 50 µM, 6 h, 37 °C, with: Z-Arg-Arg-AMC).
The inhibition of CC1N=C(c2ccccc2F)c2cc(Nc3ccc([N+](=O)[O-])cc3)ccc2NC1=O (stereo not drawn) is reported as 52% (ADRA2A; ligand displacement, radioligand; 10 µM).
The inhibition of Oc1cc(Oc2cc(Br)c(Br)cc2Br)c(Br)cc1Br is reported as 58.9 ± 1.6% (DIO2; H4 glioma; 500 nM, 6 h; relative to: untreated).
CC1N=C(c2ccccc2F)c2cc(Nc3ccccc3F)ccc2NC1=O (stereo not drawn) has an inhibition of 63% (ADRA2A; ligand displacement, radioligand; 10 µM).
CONCc1cc(O)c(O)cc1O.Cl gave an inhibition of > 75 µM (1-deoxy-D-xylulose-5-phosphate synthase (dxs, Escherichia coli, UniProt P77488); inhibitor; inactive up to value).
The inhibition of O=C(NCc1ccc(-c2ccccc2)cc1)c1coc(-c2ccccc2O)n1 is reported as ≥ 50% (HDAC2; enzyme activity, inhibitor; 20 µM).
Cc1ccc(Nc2ccc3c(c2)C(c2ccccc2F)=NC(C)C(=O)N3)c(C)c1 (stereo not drawn) has an inhibition of 31% (ADRA2A; ligand displacement, radioligand; 10 µM).
For COc1cc(/C=C/C(=O)CC(=O)/C=C/c2ccc(O)c(OC)c2)ccc1O, the inhibition was 50.2% (APP; amyloid aggregation, inhibitor, fluorescence; 50 µM).
With Cc1ccc(Nc2ccc3c(c2)C(c2ccccc2F)=NC(C)C(=O)N3)cc1 (stereo not drawn) the inhibition was 66% (ADRA2A; ligand displacement, radioligand; 10 µM).
With Brc1ccc(Oc2cc(Br)c(Br)cc2Br)c(Br)c1 the inhibition was 14.9 ± 5.3% (DIO2; H4 glioma; 500 nM, 6 h, with: 10 µM MG132 + 100 µM cycloheximide; relative to: MG132 + cycloheximide).
For O=C(O)P(=O)(O)O, inhibition read “no inhibition” (Gag-Pol polyprotein, reverse transcriptase RNase H (gag-pol, Human immunodeficiency virus 1, UniProt P03366); RNase H activity; 200 µM, single turnover, heparin trap, with: β-thujaplicinol 50 µM).
The inhibition of O=C(NC(c1ccccc1)c1ccccc1)c1coc(-c2ccccc2O)n1 is reported as ≥ 50% (HDAC2; enzyme activity, inhibitor; 20 µM).
For COC(=O)c1ccc(Nc2ccc3c(c2)C(c2ccccc2F)=NC(C)C(=O)N3)cc1 (stereo not drawn), the inhibition was 77% (ADRA2A; ligand displacement, radioligand; 10 µM).
For COc1cc([C@@H]2c3cc4c(cc3[C@H](O)[C@H]3COC(=O)[C@H]23)OCO4)cc(OC)c1OC, the inhibition was 20 ± 2% (Tubulin alpha-1B chain/TUBB2B; [3H]DZA binding; 30 µM, 1.5 h preincubation, pH 6.9, with: [3H]DZA 4.0 µM).
For CC1N=C(c2ccccc2F)c2cc(Nc3ccc(C#N)cc3)ccc2NC1=O (stereo not drawn), the inhibition was 49% (ADRA2A; ligand displacement, radioligand; 10 µM).
O=C(O)[C@H]1/C(=C/CO)O[C@@H]2CC(=O)N21 has an inhibition of ≤ 25% (Metallo-beta-lactamase VIM-2 (VIM-2, Escherichia coli, UniProt Q5U7L7); enzyme activity, inhibitor; 50 µM).
For CN(C)C/C=C/C(=O)Nc1cccc(C(=O)Nc2ccc(Nc3nccc(-c4cccnc4)n3)cc2)c1, the inhibition was 14.7% (Mitogen-activated protein kinase 14 (MAPK14, Homo sapiens, UniProt Q16539); target engagement in cells, inhibitor, chemoproteomics; A-375; 1 µM).
With CC12CC3CC1(C)C1(C)CC3(N)CC21C.Cl the inhibition was 82.5 ± 3.2% (Glutamate NMDA receptor; Grin1/Grin2a (Grin1/Grin2a, Rattus norvegicus, UniProt P35439+Q00959); NMDA-evoked current, channel blocker, whole-cell patch clamp; tsA201 cells; 10 µM, holding potential -60 mV, with: 100 µM NMDA plus 10 µM glycine).
O=CN(O)CCCc1ccc(Cl)c(Cl)c1 — result for inhibition: “inactive” (1-deoxy-D-xylulose 5-phosphate reductoisomerase (Escherichia coli K-12, UniProt P45568); enzyme activity; 100 µM).
The inhibition of COc1cccc2c1C(=O)c1c(O)c3c(c(O)c1C2=O)C[C@@](O)(C(C)=O)C[C@@H]3O[C@H]1C[C@H](N)[C@H](O)[C@H](C)O1 is reported as 31.2% (Organic cation/carnitine transporter 2 (SLC22A5, Homo sapiens, UniProt O76082); transporter uptake, inhibitor; 200 µM).
`CPLEMSHKKSFFDKK`: inhibition “no inhibition” (human REV1 (826-1251) and Polκ (1-615); REV1-Polκ binding, GST pull-down; peptide; up to 100 µM, 4 °C).
O=C(N[C@@H](Cn1ccnc1)c1ccc(-c2ccc(F)cc2)cc1Cl)c1ccc(-c2nnc(-c3ccccc3)o2)cc1 — result for inhibition: “inhibited” (Putative lanosterol 14-alpha-demethylase (Leishmania infantum, UniProt A2TEF2); enzyme activity, inhibitor; equimolar to enzyme, 1 h, Leishmania infantum CYP51, with: obtusifoliol 50 µM).
For CS(=O)(=O)c1ccc2nc(NC(=O)CCN3CCN(c4ccc(Cl)cc4)CC3)sc2c1, the inhibition was 51.7% (APP; amyloid aggregation, inhibitor, fluorescence; 50 µM).
Cc1nc2sccn2c(=O)c1CCN1CCC(=C(c2ccccc2)c2ccc(F)cc2)CC1 gave an inhibition of 100% (5-hydroxytryptamine receptor 2B (HTR2B, Homo sapiens, UniProt P41595); agonist response, antagonist; 10 µM, with: reference agonist at EC90).
With COc1ccc(N2CCN(CCC(=O)Nc3nc4ccc(S(C)(=O)=O)cc4s3)CC2)cc1 the inhibition was 52.3% (APP; amyloid aggregation, inhibitor, fluorescence; 50 µM).
The inhibition of COc1ccc(-c2sc(N)nc2-c2cc(OC)c(OC)c(OC)c2)cc1 is reported as 79 ± 0.21% (Tubulin alpha-1B chain/TUBB2B, colchicine site (Bos taurus, UniProt P81947+Q6B856); [3H]colchicine binding; 1 5 5 µM).
CS(=O)(=O)c1ccc2nc(NC(=O)CCN3CCN(c4ccc(C(F)(F)F)cc4)CC3)sc2c1 has an inhibition of 53.4% (APP; amyloid aggregation, inhibitor, fluorescence; 50 µM).
O=C(NCCCCN1C(=O)c2ccccc2C1=O)c1coc(-c2ccccc2O)n1 has an inhibition of 25% (HDAC2; enzyme activity, inhibitor; 20 µM).
The inhibition of CS(=O)(=O)c1ccc2nc(NC(=O)CCN3CCN(c4ccccn4)CC3)sc2c1 is reported as 53.3% (APP; amyloid aggregation, inhibitor, fluorescence; 50 µM).
The inhibition of CNCC(O)c1ccc(O)cc1 (racemic) is reported as 79.6% (Sodium channel protein type 10 subunit alpha (SCN10A, Homo sapiens, UniProt Q9Y5Y9); sodium influx, inhibitor, FLIPR; HEK293; 10 µM, with: deltamethrin 10 µM).
The inhibition of CS(=O)(=O)c1ccc2nc(NC(=O)CCN3CCN(c4ccc(F)cc4)CC3)sc2c1 is reported as 55.5% (APP; amyloid aggregation, inhibitor, fluorescence; 50 µM).
The inhibition of COc1ccccc1Nc1ccc2c(c1)C(c1ccccc1F)=NC(C)C(=O)N2 (stereo not drawn) is reported as 74% (ADRA2A; ligand displacement, radioligand; 10 µM).
For CS(=O)(=O)c1ccc2nc(NC(=O)CCN3CCN(c4ccccc4)CC3)sc2c1, the inhibition was 54.3% (APP; amyloid aggregation, inhibitor, fluorescence; 50 µM).
CC[C@H](C)[C@@H]([C@@H](CC(=O)N1CCC[C@H]1[C@H](OC)[C@@H](C)C(=O)N[C@@H](Cc1ccccc1)c1nccs1)OC)N(C)C(=O)[C@@H](NC(=O)[C@H](C(C)C)N(C)C)C(C)C has an inhibition of 55 ± 5% (Tubulin alpha-1B chain/TUBB2B; [3H]DZA binding, inhibitor; bovine; 30 µM, 1.5 h preincubation, pH 6.9, with: [3H]DZA 4.0 µM).
